# Measurements of several laboratories.
# “And” joins repeats or separate records; there may be more than shown. ± marks the error that the study gave.
# U2AF2: U2AF2 148-342 (Homo sapiens, UniProt P26368)
# Chain of UniProt P26368 (whole entry, looked up): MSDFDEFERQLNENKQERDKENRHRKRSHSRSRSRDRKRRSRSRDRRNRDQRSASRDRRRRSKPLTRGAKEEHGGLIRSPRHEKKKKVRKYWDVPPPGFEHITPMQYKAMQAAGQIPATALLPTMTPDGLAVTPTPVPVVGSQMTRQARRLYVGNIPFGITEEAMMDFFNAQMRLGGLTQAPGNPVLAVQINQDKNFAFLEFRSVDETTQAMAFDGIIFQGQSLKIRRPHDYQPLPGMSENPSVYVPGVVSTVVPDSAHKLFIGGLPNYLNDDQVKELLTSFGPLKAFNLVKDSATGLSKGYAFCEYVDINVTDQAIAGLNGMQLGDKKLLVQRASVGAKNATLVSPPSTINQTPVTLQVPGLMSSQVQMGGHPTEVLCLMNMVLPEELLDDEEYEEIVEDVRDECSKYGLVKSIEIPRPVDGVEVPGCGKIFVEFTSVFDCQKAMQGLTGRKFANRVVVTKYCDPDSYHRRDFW
# B1: human AP1G1; sequence looked up; chain MPAPIRLRELIRTIRTARTQAEEREMIQKECAAIRSSFREEDNTYRCRNVAKLLYMHMLGYPAHFGQLECLKLIASQKFTDKRIGYLGAMLLLDERQDVHLLMTNCIKNDLNHSTQFVQGLALCTLGCMGSSEMCRDLAGEVEKLLKTSNSYLRKKAALCAVHVIRKVPELMEMFLPATKNLLNEKNHGVLHTSVVLLTEMCERSPDMLAHFRKLVPQLVRILKNLIMSGYSPEHDVSGISDPFLQVRILRLLRILGRNDDDSSEAMNDILAQVATNTETSKNVGNAILYETVLTIMDIKSESGLRVLAINILGRFLLNNDKNIRYVALTSLLKTVQTDHNAVQRHRSTIVDCLKDLDVSIKRRAMELSFALVNGNNIRGMMKELLYFLDSCEPEFKADCASGIFLAAEKYAPSKRWHIDTIMRVLTTAGSYVRDDAVPNLIQLITNSVEMHAYTVQRLYKAILGDYSQQPLVQVAAWCIGEYGDLLVSGQCEEEEPIQVTEDEVLDILESVLISNMSTSVTRGYALTAIMKLSTRFTCTVNRIKKVVSIYGSSIDVELQQRAVEYNALFKKYDHMRSALLERMPVMEKVTTNGPTEIVQTNGETEPAPLETKPPPSGPQPTSQANDLLDLLGGNDITPVIPTAPTSKPSSAGGELLDLLGDINLTGAPAAAPAPASVPQISQPPFLLDGLSSQPLFNDIAAGIPSITAYSKNGLKIEFTFERSNTNPSVTVITIQASNSTELDMTDFVFQAAVPKTFQLQLLSPSSSIVPAFNTGTITQVIKVLNPQKQQLRMRIKLTYNHKGSAMQDLAEVNNFPPQSWQ
# B2: human AMPD2; sequence looked up; chain MASYPSGSGKPKAKYPFKKRASLQASTAAPEARGGLGAPPLQSARSLPGPAPCLKHFPLDLRTSMDGKCKEIAEELFTRSLAESELRSAPYEFPEESPIEQLEERRQRLERQISQDVKLEPDILLRAKQDFLKTDSDSDLQLYKEQGEGQGDRSLRERDVLEREFQRVTISGEEKCGVPFTDLLDAAKSVVRALFIREKYMALSLQSFCPTTRRYLQQLAEKPLETRTYEQGPDTPVSADAPVHPPALEQHPYEHCEPSTMPGDLGLGLRMVRGVVHVYTRREPDEHCSEVELPYPDLQEFVADVNVLMALIINGPIKSFCYRRLQYLSSKFQMHVLLNEMKELAAQKKVPHRDFYNIRKVDTHIHASSCMNQKHLLRFIKRAMKRHLEEIVHVEQGREQTLREVFESMNLTAYDLSVDTLDVHADRNTFHRFDKFNAKYNPIGESVLREIFIKTDNRVSGKYFAHIIKEVMSDLEESKYQNAELRLSIYGRSRDEWDKLARWAVMHRVHSPNVRWLVQVPRLFDVYRTKGQLANFQEMLENIFLPLFEATVHPASHPELHLFLEHVDGFDSVDDESKPENHVFNLESPLPEAWVEEDNPPYAYYLYYTFANMAMLNHLRRQRGFHTFVLRPHCGEAGPIHHLVSAFMLAENISHGLLLRKAPVLQYLYYLAQIGIAMSPLSNNSLFLSYHRNPLPEYLSRGLMVSLSTDDPLQFHFTKEPLMEEYSIATQVWKLSSCDMCELARNSVLMSGFSHKVKSHWLGPNYTKEGPEGNDIRRTNVPDIRVGYRYETLCQELALITQAVQSEMLETIPEEAGITMSPGPQ
Molecule,tested on,assay,system,conditions,how to read,endpoint,value
CXCL12,human neural stem cells,"western blot, measured: phospho-ERK1/2 Tyr202/Tyr204",,12.5 nM,,time to ERK1/2 phosphorylation,2 to 5 min
human Hsc70,CYB5R4 knockout human cells,"PP4 interaction, 3xFLAG-PP4C IP-MS",,concentration not given,relative to: CYB5R4 KO over parental,log2 fold change,0.39
QPDPIPNDY,Jurkat expressing engineered TCR,"NFAT-eGFP reporter, fluorescence microscopy",peptide,"concentration not given, HLA-A*01:01 on EL4 cells",,GFP-positive cells,0.459%
human RGPD1,CYB5R4 knockout human cells,"PP4 interaction, 3xFLAG-PP4C IP-MS",,concentration not given,relative to: CYB5R4 KO over parental,log2 fold change,0.39
MTVCNASQRQAHAQATAVSL,SKOV3,phage binding,peptide,,relative to: targeting over control phage,selectivity ratio,0.97 ± 0.37
B1 (human AP1G1),CYB5R4 knockout human cells,"PP4 interaction, 3xFLAG-PP4C IP-MS",,concentration not given,relative to: CYB5R4 KO over parental,log2 fold change,-0.55
UUUGUACAU (ssRNA),U2AF2,sequencing of bound RNA,RNA,motif only,,Kd,2550 nM
QSDPIESEY,Jurkat NFAT-eGFP expressing engineered TCR,NFAT reporter gene,peptide,"concentration not given, HLA-A*01:01 presentation",,GFP-positive cells,6.21%
recombinant human interleukin-6,enteroid monolayers,"RT-qPCR, measured: ABCC1",,"10 ng/mL, 48 h",,decrease in mRNA level,45 to 50%
CUCUUAACU (ssRNA),U2AF2,sequencing of bound RNA,RNA,motif only,,Kd,2300 nM
human RGPD5,CYB5R4 knockout human cells,"PP6 interaction, 3xFLAG-PP6C IP-MS",,concentration not given,relative to: CYB5R4 KO over parental,log2 fold change,0.61
QIDPVGYEY,Jurkat expressing engineered TCR,"NFAT-eGFP reporter, fluorescence microscopy",peptide,"concentration not given, HLA-A*01:01 on EL4 cells",,GFP-positive cells,0.476%
human CDK9,CYB5R4 knockout human cells,"PP4 interaction, 3xFLAG-PP4C IP-MS",,concentration not given,relative to: CYB5R4 KO over parental,log2 fold change,-0.81
YTDPIEDTF,Jurkat NFAT-eGFP expressing engineered TCR,NFAT reporter gene,peptide,"concentration not given, HLA-A*01:01 presentation",,GFP-positive cells,0.67%
epoetin alfa,UT7/EPO,"phosphorylation, agonist, measured: phospho-ERK1/2",,10 min,,EC50,0.007 nM
methyl-β-cyclodextrin,HEK293F cells expressing GlyT1 A563F,,,"3.5 mg/mL, unit not given",relative to: untreated,cell surface cholesterol,74.5 and 72.4 and 66.8
YLEPIYLEY,Jurkat expressing engineered TCR,"NFAT-eGFP reporter, fluorescence microscopy",peptide,"concentration not given, HLA-A*01:01 on EL4 cells",,GFP-positive cells,0.467%
Peginesatide,UT7/EPO,"tyrosine phosphorylation, LC-MS/MS phosphoproteomics, GluC, measured: FRK tyrosine 497",,"10 nM, 15 min, added: 10 U/mL EPO",relative to: vehicle,phosphorylation level,4.7 fold
B2 (human AMPD2),CYB5R4 knockout human cells,"PP4 interaction, 3xFLAG-PP4C IP-MS",,concentration not given,relative to: CYB5R4 KO over parental,log2 fold change,-1.36
ESDPINESY,Jurkat expressing engineered TCR,"NFAT-eGFP reporter, fluorescence microscopy",peptide,"concentration not given, HLA-A*01:01 on EL4 cells",,GFP-positive cells,10.7%
